Results gathered from unrelated publications.
Protocols differ between the studies behind these lines. Values joined by “and” are separate records of one study, mostly repeats; a detail may differ. Numbers after ± are the reported error.
B1: PUM1 589-701 (Homo sapiens, UniProt Q14671); sequence looked up; chain ISSSAAQAAVAAAAASANGAAGGLAGTTNGPFRPLGTQQPQPQPQQQPNNNLASSSFYGNNSLNSNSQSSSLFSQGSAQPANTSLGFGSSSSLGATLGSALGGFGTAVANSNT
B2: Sgip1 69-156 (Mus musculus, UniProt Q8VD37); chain AEIDWERYNSPELDEEGYSIRPEEPGSTKGKHFYSSSESEEEEESHKKFNIKIKPLQSKDVLKNAATVDELKASIGNIALSPSPVRKS
B3: SNAPC5 (Homo sapiens, UniProt O75971); chain MLSRLQELRKEEETLLRLKAALHDQLNRLKVEELALQSMISSRRGDEMLSSHTVPEQSHDMLVHVDNEASINQTTLELSTKSHVTEEEEEEEEEESDS
B4: VAMP8 (Homo sapiens, UniProt Q9BV40); chain MEEASEGGGNDRVRNLQSEVEGVKNIMTQNVERILARGENLEHLRNKTEDLEATSEHFKTTSQKVARKFWWKNVKMIVLICVIVFIIILFIVLFATGAFS
B5: qcr10 (Schizosaccharomyces pombe, UniProt Q9P7E0); sequence looked up; chain MISFFPNKPMYHVQPHISFITPERTMKTIPAFSRWAFAAVAGVFVFAMQVPKVKTTILQPIAFIGDHFKDKTPEEDKWL
B6: PSMG3/PSMG4 heterodimer (Homo sapiens); chain 1 MEDTPLVISKQKTEVVCGVPTQVVCTAFSSHILVVVTQFGKMGTLVSLEPSSVASDVSKPVLTTKVLLGQDEPLIHVFAKNLVAFVSQEAGNRAVLLAVAVKDKSMEGLKALREVIRVCQVW; chain 2 MEGLVVAAGGDVSLHNFSARLWEQLVHFHVMRLTDSLFLWVGATPHLRNLAVAMCSRYDSIPVSTSLLGDTSDTTSTGLAQRLARKTNKQVFVSYNLQNTDSNFALLVENRIKEEMEAFPEKF
B7: RIE1 (Arabidopsis thaliana, UniProt Q8GUU2); sequence looked up; chain MSSYSSDSTAARDQHAPLLRPRHDGSFSSSSSSARPTALAVLLGRITGHRAPSMLVRETAARALEERRIDWGYSKPVVAADILWNAALVLASAVMLVGTVEERPNEPIRVWICVYGLQCLFHVVLVWSEYWRRNSTRRARDLESYDHEDYNIEYDYEQDSDDNSTTYSFVKRCESINTVISFIWWIIGFYWVVEGGDKLLGEAPNLYWLSVIFLAIDVFFAVFCVVLACLVGIALCCCLPCIIALLYAVAGTEGVSEAELGVLPLYKFKAFHSNEKNITGPGKMVPIPINGLCLATERTLLAEDADCCICLSSYEDGAELHALPCNHHFHSTCIVKWLKMRATCPLCKYNILKGTTDQS
B8: TFAM 43-245 (Homo sapiens, UniProt Q00059); sequence looked up; chain SSVLASCPKKPVSSYLRFSKEQLPIFKAQNPDAKTTELIRRIAQRWRELPDSKKKIYQDAYRAEWQVYKEEISRFKEQLTPSQIMSLEKEIMDKHLKRKAMTKKKELTLLGKPKRPRSAYNVYVAERFQEAKGDSPQEKLKTVKENWKNLSDSEKELYIQHAKEDETRYHNEMKSWEEQMIEVGRKDLLRRTIKKQRKYGAEE
B9: rasC Q62L/E157R/R164E (Dictyostelium discoideum, UniProt P32253); sequence looked up; chain MSKLLKLVIVGDGGVGKSALTIQLTQNQFIAEYDPTIENSYRKQVNIDEEVYMLDILDTAGLEEYSAMRDQYIRSGRGFLIVYSIISRASFEAVTTFREQILRVKDLSTYPIVIIGNKADLPDKDRKVPPMEGKELAKSFGAPFLETSAKSRVNVERAFFTLVEEIKRWNQNPQNEEMLPPKKRGCIIL
B10: NEIL2 (Homo sapiens, UniProt Q969S2); sequence looked up; chain MPEGPLVRKFHHLVSPFVGQQVVKTGGSSKKLQPASLQSLWLQDTQVHGKKLFLRFDLDEEMGPPGSSPTPEPPQKEVQKEGAADPKQVGEPSGQKTLDGSSRSAELVPQGEDDSEYLERDAPAGDAGRWLRVSFGLFGSVWVNDFSRAKKANKRGDWRDPSPRLVLHFGGGGFLAFYNCQLSWSSSPVVTPTCDILSEKFHRGQALEALGQAQPVCYTLLDQRYFSGLGNIIKNEALYRAGIHPLSLGSVLSASRREVLVDHVVEFSTAWLQGKFQGRPQHTQVYQKEQCPAGHQVMKEAFGPEDGLQRLTWWCPQCQPQLSEEPEQCQFS
B11: DMC1 (Homo sapiens, UniProt Q14565); chain MKEDQVVAEEPGFQDEEESLFQDIDLLQKHGINVADIKKLKSVGICTIKGIQMTTRRALCNVKGLSEAKVDKIKEAANKLIEPGFLTAFEYSEKRKMVFHITTGSQEFDKLLGGGIESMAITEAFGEFRTGKTQLSHTLCVTAQLPGAGGYPGGKIIFIDTENTFRPDRLRDIADRFNVDHDAVLDNVLYARAYTSEHQMELLDYVAAKFHEEAGIFKLLIIDSIMALFRVDFSGRGELAERQQKLAQMLSRLQKISEEYNVAVFVTNQMTADPGATMTFQADPKKPIGGHILAHASTTRISLRKGRGELRIAKIYDSPEMPENEATFAITAGGIGDAKE
Sequence of UniProt O00411 (whole entry, unmodified, looked up): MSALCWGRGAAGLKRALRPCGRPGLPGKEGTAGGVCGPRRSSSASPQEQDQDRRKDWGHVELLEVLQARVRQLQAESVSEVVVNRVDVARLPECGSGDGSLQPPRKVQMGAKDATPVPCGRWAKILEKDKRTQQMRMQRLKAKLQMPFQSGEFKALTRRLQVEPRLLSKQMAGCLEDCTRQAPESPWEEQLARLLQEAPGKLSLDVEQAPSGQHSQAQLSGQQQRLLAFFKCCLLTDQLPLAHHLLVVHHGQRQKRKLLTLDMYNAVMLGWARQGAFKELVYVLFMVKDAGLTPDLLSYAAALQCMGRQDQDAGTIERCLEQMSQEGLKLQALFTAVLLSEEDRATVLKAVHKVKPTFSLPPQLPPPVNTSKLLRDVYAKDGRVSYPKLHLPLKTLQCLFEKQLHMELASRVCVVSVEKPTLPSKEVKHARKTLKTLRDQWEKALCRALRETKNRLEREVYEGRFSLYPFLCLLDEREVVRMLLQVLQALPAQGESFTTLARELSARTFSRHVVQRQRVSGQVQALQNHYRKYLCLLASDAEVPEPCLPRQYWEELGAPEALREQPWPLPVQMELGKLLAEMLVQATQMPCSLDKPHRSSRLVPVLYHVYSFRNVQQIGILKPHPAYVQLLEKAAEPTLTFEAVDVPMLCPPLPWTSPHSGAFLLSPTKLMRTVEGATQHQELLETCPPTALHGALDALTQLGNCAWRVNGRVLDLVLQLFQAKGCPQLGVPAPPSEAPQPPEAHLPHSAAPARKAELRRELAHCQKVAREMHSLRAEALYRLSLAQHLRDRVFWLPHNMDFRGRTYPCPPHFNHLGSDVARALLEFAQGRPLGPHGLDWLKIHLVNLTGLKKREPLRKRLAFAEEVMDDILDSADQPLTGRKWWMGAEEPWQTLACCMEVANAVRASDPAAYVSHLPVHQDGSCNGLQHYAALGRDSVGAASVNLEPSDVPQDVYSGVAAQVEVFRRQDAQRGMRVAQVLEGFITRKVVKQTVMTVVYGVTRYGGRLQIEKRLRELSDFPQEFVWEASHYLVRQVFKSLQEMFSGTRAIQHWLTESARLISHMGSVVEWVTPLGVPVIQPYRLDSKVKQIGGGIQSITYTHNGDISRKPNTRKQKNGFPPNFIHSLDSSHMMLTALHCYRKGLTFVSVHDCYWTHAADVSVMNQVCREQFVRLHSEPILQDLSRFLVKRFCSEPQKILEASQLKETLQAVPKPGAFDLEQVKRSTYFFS
Sequence of UniProt P25786 (whole entry, looked up): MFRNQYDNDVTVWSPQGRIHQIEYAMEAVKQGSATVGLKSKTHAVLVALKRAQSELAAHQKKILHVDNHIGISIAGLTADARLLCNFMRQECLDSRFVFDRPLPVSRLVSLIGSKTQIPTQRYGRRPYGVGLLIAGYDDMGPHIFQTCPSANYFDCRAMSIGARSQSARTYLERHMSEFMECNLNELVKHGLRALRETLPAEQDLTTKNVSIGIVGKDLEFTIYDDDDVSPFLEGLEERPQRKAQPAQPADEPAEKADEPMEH
Sequence of UniProt Q13185 (whole entry, unmodified, looked up): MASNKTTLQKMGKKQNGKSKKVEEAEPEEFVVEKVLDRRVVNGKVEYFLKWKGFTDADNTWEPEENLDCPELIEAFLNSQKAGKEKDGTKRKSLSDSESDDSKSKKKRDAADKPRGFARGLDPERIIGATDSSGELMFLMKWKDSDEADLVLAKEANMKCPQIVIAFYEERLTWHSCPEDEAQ
Sequence of UniProt Q5SXM2 (whole entry, looked up): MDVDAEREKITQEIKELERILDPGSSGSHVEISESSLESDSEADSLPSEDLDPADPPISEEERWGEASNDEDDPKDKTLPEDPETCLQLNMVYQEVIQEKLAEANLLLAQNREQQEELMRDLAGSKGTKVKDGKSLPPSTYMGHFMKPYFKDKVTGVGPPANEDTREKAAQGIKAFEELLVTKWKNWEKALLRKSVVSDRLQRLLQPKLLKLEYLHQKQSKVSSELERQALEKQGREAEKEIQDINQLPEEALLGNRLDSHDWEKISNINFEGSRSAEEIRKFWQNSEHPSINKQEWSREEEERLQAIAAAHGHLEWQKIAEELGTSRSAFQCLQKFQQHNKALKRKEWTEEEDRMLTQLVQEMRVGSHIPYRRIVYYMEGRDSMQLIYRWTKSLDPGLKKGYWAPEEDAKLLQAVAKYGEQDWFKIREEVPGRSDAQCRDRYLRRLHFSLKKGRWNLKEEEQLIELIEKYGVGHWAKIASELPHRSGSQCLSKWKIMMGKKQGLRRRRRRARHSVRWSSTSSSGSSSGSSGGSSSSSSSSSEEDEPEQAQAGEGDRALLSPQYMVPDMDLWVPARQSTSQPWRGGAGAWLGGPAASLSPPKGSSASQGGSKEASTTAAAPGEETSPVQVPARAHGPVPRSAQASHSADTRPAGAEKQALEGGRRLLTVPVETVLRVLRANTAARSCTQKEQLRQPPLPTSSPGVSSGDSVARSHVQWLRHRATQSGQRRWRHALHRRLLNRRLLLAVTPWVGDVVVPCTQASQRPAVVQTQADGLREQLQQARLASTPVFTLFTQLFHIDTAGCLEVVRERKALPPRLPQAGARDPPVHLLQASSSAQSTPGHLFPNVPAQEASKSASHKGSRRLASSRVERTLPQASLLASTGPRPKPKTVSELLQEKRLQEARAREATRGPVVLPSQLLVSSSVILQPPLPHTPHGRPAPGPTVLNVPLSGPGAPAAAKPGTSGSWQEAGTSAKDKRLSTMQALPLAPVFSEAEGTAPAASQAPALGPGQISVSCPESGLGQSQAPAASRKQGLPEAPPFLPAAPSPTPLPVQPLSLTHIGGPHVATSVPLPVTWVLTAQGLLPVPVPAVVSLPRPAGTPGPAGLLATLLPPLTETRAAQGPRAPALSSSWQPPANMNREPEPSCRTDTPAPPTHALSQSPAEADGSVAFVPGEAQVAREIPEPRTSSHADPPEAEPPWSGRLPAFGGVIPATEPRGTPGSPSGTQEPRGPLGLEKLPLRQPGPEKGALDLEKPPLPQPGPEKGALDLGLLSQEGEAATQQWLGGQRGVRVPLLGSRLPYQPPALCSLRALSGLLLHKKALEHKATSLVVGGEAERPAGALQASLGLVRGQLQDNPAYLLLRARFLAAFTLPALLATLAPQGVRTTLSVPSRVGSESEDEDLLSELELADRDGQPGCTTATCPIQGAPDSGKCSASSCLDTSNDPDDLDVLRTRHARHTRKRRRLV
Sequence of UniProt Q09312 (whole entry, looked up): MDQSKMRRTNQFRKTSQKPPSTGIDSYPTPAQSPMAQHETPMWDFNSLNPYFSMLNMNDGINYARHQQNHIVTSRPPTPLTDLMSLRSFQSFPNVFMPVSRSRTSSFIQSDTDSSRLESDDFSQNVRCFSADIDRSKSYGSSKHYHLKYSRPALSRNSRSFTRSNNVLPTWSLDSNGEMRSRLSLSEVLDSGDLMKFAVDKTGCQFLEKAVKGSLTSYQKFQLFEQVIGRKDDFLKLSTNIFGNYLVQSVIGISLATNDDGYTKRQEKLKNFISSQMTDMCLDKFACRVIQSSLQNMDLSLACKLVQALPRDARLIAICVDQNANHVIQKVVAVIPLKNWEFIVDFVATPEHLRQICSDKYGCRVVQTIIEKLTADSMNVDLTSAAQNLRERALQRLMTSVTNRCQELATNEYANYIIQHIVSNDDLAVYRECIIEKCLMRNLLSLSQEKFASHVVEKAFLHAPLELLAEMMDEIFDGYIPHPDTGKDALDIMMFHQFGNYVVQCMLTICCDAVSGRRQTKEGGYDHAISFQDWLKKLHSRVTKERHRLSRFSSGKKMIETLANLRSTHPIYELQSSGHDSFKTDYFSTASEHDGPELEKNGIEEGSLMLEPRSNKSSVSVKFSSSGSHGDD
Sequence of UniProt Q01497 (whole entry, looked up): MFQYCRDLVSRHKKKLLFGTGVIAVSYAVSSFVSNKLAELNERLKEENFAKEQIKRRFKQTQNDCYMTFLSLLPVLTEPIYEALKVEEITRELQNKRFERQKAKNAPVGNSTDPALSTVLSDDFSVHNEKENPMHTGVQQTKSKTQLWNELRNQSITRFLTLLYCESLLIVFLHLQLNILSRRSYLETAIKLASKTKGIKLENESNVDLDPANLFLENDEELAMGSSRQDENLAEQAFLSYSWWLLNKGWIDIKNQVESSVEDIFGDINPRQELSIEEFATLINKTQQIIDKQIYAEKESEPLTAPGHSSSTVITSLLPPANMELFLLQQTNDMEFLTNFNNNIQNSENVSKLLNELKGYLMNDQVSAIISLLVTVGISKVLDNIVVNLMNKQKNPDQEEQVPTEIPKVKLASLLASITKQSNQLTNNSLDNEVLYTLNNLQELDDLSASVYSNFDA
Sequence of UniProt O74988 (whole entry, looked up): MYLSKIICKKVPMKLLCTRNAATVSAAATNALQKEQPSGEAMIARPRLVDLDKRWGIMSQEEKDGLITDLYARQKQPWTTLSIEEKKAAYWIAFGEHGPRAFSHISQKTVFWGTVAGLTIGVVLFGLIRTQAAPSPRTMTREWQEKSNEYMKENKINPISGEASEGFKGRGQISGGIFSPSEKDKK
Sequence of UniProt Q8WUP2 (whole entry, looked up): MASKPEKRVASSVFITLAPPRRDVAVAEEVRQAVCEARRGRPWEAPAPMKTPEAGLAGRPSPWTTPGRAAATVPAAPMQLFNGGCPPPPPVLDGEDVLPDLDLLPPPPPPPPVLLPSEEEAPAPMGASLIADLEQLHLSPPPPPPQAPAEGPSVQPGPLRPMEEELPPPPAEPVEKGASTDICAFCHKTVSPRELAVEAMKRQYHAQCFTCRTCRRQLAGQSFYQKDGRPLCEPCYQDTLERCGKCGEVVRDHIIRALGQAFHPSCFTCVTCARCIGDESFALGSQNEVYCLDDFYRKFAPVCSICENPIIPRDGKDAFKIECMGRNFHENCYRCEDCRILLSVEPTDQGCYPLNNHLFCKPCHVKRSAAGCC

SKKNNAASELANPASSYVSQIRKHKRVSPNAAPR (Nup60 285-318 Y298A (Saccharomyces cerevisiae, UniProt P39705); sequence looked up) — binding (NUP85/SEH1 Nup85 1-564 (Saccharomyces cerevisiae); pull-down; peptide): binds
B1 (PUM1 589-701) — binding (CNOT1/CNOT2/CNOT3 NOT module 1833-2361; pull-down): binds
B2 (Sgip1 69-156) — binding (AP2A2/AP2B1/AP2M1/AP2S1 core, lacking appendage domains (Mus musculus); pull-down): binds
TSTVQLIMQL — binding score (HLA class I histocompatibility antigen, A alpha chain, allele A*01:01 (Homo sapiens, UniProt P04439); conformational ELISA; peptide; concentration not given; reference: positive control peptide, direction not given): 0.6% and 0.5%
LANFLVHSSNNFGAIL (hIAPP residues 12-27 (Homo sapiens); O-GlcNAc serine) — binding (IAPP mature, Alexa Fluor 647 label (Homo sapiens, UniProt P10997); MST; peptide; 25 °C): binds
B3 (SNAPC5) — binding (SNAPC4 (Homo sapiens, UniProt Q5SXM2); cross-linking): binds
GSGAGIESNV — binding intensity (human SCRIB PDZ3-4 tandem (MBP fusion); automated holdup; peptide, crude extract; concentration not given, uncorrected, unit not given; reference: biotin control resin, higher = stronger binding): 0.765
SSHSSLTERHKILHRLLQEGSPSDITTLSVEPD (NCOA1 678-710 (Homo sapiens, UniProt Q15788); sequence looked up) — binding (NR1I2 130-434 L411A (Homo sapiens, UniProt O75469); crystal structure; peptide): binds
B4 (VAMP8) — binding (FBLIM1 (Homo sapiens, UniProt Q8WUP2); pull-down): binds
RVB1 (Saccharomyces cerevisiae, UniProt Q03940) — binding (SWR1 (Saccharomyces cerevisiae, UniProt Q05471); cryo-EM): binds
VTI1 (Saccharomyces cerevisiae, UniProt Q04338) — binding (TLG1 (Saccharomyces cerevisiae, UniProt Q03322); pull-down): binds
SLLDYVREH — binding score (HLA class I histocompatibility antigen, A alpha chain, allele A*02:01 (Homo sapiens, UniProt P04439); conformational ELISA; peptide; concentration not given; reference: positive control peptide, direction not given): 15.2%
B5 (qcr10) — binding (COX5 mature (Schizosaccharomyces pombe, UniProt O74988); cryo-EM): binds
NGVTATILEPRARVEKDYGK (gld-3 860-879 K864A (Caenorhabditis elegans, UniProt Q95ZK7); sequence looked up) — binding (fbf-2 164-575 (Caenorhabditis elegans, UniProt Q09312); fluorescence polarisation; peptide): binds
B6 (PSMG3/PSMG4 heterodimer) — binding (PSMA1 (Homo sapiens, UniProt P25786); cryo-EM): binds
B7 (RIE1) — binding (ACS7 15-447 (Arabidopsis thaliana, UniProt Q9STR4); pull-down; 2 h, 4 °C): binds
B8 (TFAM 43-245) — binding (POLRMT 43-1230 (Homo sapiens, UniProt O00411); cryo-EM): binds
TKQTARKSTGGKA (H3 peptide residues 3-x 4-16 (UniProt P68431); K9me3) — binding (CBX3 29-81 D68L/C69D (Homo sapiens, UniProt Q13185); array; peptide): binds
YSDDDLDDLDDLLDDFDDEILSK (PEX19 N-terminal (Ogataea angusta)) — binding (PEX3 38-457 (Hansenula polymorpha, UniProt Q01497); X-ray crystallography; peptide): binds
NRVDSKETEC — binding intensity (human MAGI1-2/6 PDZ construct (MBP fusion); automated holdup; peptide, crude extract; concentration not given, uncorrected, unit not given; reference: biotin control resin, higher = stronger binding): 0.217
B9 (rasC Q62L/E157R/R164E) — binding (racE T25N/S192D/E173R/R186E (Dictyostelium discoideum); pull-down): binds
B10 (NEIL2) — binding (ERCC6 (Homo sapiens, UniProt Q03468); far-Western blot): binds
LGGLTNGSGRYISAAPGAEAKYRSASS (PUM1 774-800 (Homo sapiens, UniProt Q14671); sequence looked up) — binding (CNOT1/CNOT2/CNOT3 C-terminal NOT module 1833-2361; pull-down): binds
CAAGCAAGCAAG (dsDNA) — Kd (Fibroin-modulator-binding protein-1 99-193 (Bombyx mori, UniProt Q5FBS0); ITC; double-stranded DNA, one strand shown): 5.51 ± 0.943 µM
B11 (DMC1) — binding (RAD54L (Homo sapiens, UniProt Q92698); SPR): binds
Arc (Rattus norvegicus, UniProt Q63053) — binding (tau 2N4R, phosphorylated (Homo sapiens, UniProt P10636-8); pull-down): binds
